# Measured values from different studies.
# Compare with care: the assays were run in different laboratories. “And” joins repeats or separate records; there may be more than shown. ± marks the error that the study gave.
SMILES,assay,system,conditions,scale,measurement,value
C[C@H]1[C@H](OC(=O)CCC(=O)O)O[C@@H]2O[C@@]3(C)CC[C@H]4[C@H](C)CC[C@@H]1[C@@]24OO3,"item: ACTA2, POSTN","C57BL/6 mouse, transverse aortic constriction","dose not given, therapeutic dosing",,myofibroblast marker expression,decreased
COc1ccc2c(c1)CN(Cc1ccc(C(=O)O)cc1)CCS2,,exercised mdx mice,"50 mg/kg, 4 weeks",,forelimb grip strength,0.179 ± 0.005 kgf
N#Cc1ccc2c(c1)[C@H]1CCCN(C(=O)c3ccc4[nH]cnc4c3)[C@H]1C2,,"human, plasma","10 mg, day 15, 360 h",baseline: placebo and baseline,change in 1.5-AHG,2.7%
N#Cc1ccn2c(-c3ccncc3)c(-c3ccc(F)cc3)nc2c1,"kinase binding, competitor, MIB/MS competition, item: GIN4",Candida albicans cell lysate,1 µM,baseline: DMSO,log2 fold change,0.0196
CCOc1c([C@H](C)n2nc(C)c3c(N)ncnc32)cc(Cl)c(F)c1[C@@H]1CNC(=O)C1,"Olink proximity extension proteomics, item: TNF","human FL or MZL patients, plasma","dose not given, week 8",baseline: baseline,plasma protein level change,-46%
NC(=O)c1cnc2[nH]ccc2c1N[C@@H]1[C@@H]2CC3C[C@H]1C[C@@](O)(C3)C2,"total naive T cells, flow cytometry","Japanese humans, peripheral blood",200 mg single dose,baseline: baseline,percent change,0.02%
O=C1CC[C@H](N2Cc3c(OCc4ccc(CN5CCOCC5)cc4)cccc3C2=O)C(=O)N1,deuterium-hydrogen exchange,aqueous phosphate buffer,"pH 7.4, 37 °C",,exchange rate constant,-0.02 h⁻¹
CN[C@@H](C)C(=O)N[C@H]1CN(S(=O)(=O)c2cccc(S(=O)(=O)N3CC[C@H]4CC[C@@H](C(=O)NC(c5ccccc5)c5ccccc5)N4C(=O)[C@@H](NC(=O)[C@H](C)NC)C3)c2)CC[C@H]2CC[C@@H](C(=O)NC(c3ccccc3)c3ccccc3)N2C1=O,RECIST 1.1,advanced pancreatic cancer patients,"dose not given, no prior therapy, together with: AG",,best response stable disease,66.7%
Cc1ccc2c(c1)C(=O)[C@]1(O)CCN(c3ccc4nc(C)ccc4c3)C1=N2.Cl,,"mouse, orthotopic sample A PDX","dose not given, 168 h, treatment from day 7",baseline: vehicle,survival prolongation,25%
NCC(=O)Nc1cncc(-c2nn3c(=O)cc(N4CCNCC4)nc3s2)c1,"ADP-induced platelet aggregation, light transmission aggregometry","human, stable CAD on aspirin, platelets ex vivo","subcutaneous, 0.075 mg/kg, 180 min post-dose, together with: ADP 20 µM",,inhibition,2.7%
COc1ccc(F)cc1C(=O)NCc1ccc(-c2nn([C@@H](C)C(F)(F)F)c(N)c2C(N)=O)cc1,,relapsed/refractory CLL patients,"dose not given, monotherapy",,best overall response CR,2%
Cc1ccc([C@@H]2O[C@H](CO)[C@@H](O)[C@H](O)[C@H]2O)cc1Cc1ccc(-c2ccc(F)cc2)s1,,Japanese type 2 diabetes patients,"200 mg, day 16",baseline: day 0,change in 24-h mean serum insulin,-0.7 µU/mL
COc1ccccc1[C@H](Cn1c(=O)n(C(C)(C)C(=O)O)c(=O)c2c(C)c(-c3ncco3)sc21)OC1CCOCC1,"[1-13C]acetate infusion, isotopomer analysis","overweight or obese healthy men, plasma VLDL-TG palmitate","oral, 200 mg single dose, 7 h post-dose, together with: oral fructose",,fractional hepatic DNL,5.09 % new palmitate
Cc1cc(C)c(CNC(=O)c2cc(Cl)c3c(c2C)O[C@@](C)([C@H]2CC[C@H](N(C)C)CC2)O3)c(=O)[nH]1,,"relapsed/refractory NHL patients, total incl. ATLL and CTCL","oral, dose not given",,best overall response PR,20%
O=C(COc1ccc(Cl)cc1)NC12CC(c3nnc([C@H]4C[C@@H](OC(F)(F)F)C4)o3)(C1)C2,,"healthy human, PBMC","145 mg once daily, day 15, 24 h post-dose, median, together with: sodium arsenite ex vivo",baseline: baseline,ATF4 protein change,-69.1%
N=C(N)NCCC[C@H](NC(=O)[C@H](CCCNC(=N)N)NC(=O)[C@H](CCCCN)NC(=O)[C@H](CCC(N)=O)NC(=O)[C@H](CCCCN)NC(=O)[C@H](Cc1ccc(O)cc1)NC(=O)[C@@H](N)CCCCN)C(=O)N[C@@H](CO)C(=O)N[C@@H](Cc1ccc(O)cc1)C(=O)N[C@@H](CCCCN)C(=O)O,,dentin hypersensitivity patients,"5 µg/tooth single, day 22",baseline: baseline,median cold water VAS change,-16.5 mm
Cc1c(C)n(Cc2cccc(OC(C)(C)C(=O)O)c2)c2ccc(C(=O)N[C@@H](C)c3ccc(C(C)(C)C)cc3)cc12,,"C57BL/6 mouse, diet-induced obesity, L4 vertebra",dose not given,,bone marrow fat volume,0 mm3
N#Cc1ccc2c(c1)[C@H]1CCCN(C(=O)c3ccc4[nH]cnc4c3)[C@H]1C2,item: Triglycerides,human,"240 mg once daily, day 28, adjusted mean",baseline: placebo,change from baseline,-39.3 mg/dL
COc1cc(O)c(CC=C(C)C)c(O)c1C(=O)/C=C/c1ccc(O)cc1,,"male Tac:SW conventional mice, high-fat diet","in diet, 60 mg/kg/day, 10 weeks",,fasting plasma insulin,0.88 ng/mL
CCN1CCN(Cc2ccc(Nc3ncc(F)c(-c4cc(F)c5nc6n(c5c4)[C@H](C)CCC6)n3)nc2)CC1,,human advanced solid tumours,"500 mg, phase Ia monotherapy RECIST 1.1",,not evaluable response,0%
C[C@H]1C[C@H]2CSC(N)=N[C@@]2(c2nc(NC(=O)c3ccc(OC(F)F)cn3)cs2)CO1,item: Aβ1-40,"healthy adults, plasma","160 mg single dose, 8 h post-dose",baseline: placebo,percent change from baseline,-80.9%
OC[C@H]1O[C@@H](c2ccc(Cl)c(Cc3ccc(O[C@H]4CCOC4)cc3)c2)[C@H](O)[C@@H](O)[C@@H]1O,,Japanese type 1 diabetes patients,"2.5 mg, day 7, 168 h",baseline: baseline,diastolic blood pressure change,1.2 mmHg
CSCCNc1nc(SCCC(F)(F)F)nc2c1ncn2[C@@H]1O[C@H](COP(=O)(O)OP(=O)(O)C(Cl)(Cl)P(=O)(O)O)[C@@H](O)[C@H]1O,light transmittance aggregometry,"human patients, platelet-rich plasma","dose not given, 2 h, together with: ADP 5 µM",baseline: patients,patients with IPA above 80%,7.5%
C[C@@H](O)CCOC(=O)C[C@@H](C)O,item: C5-OH/C3-DC acylcarnitine,"human, plasma","60 min, log2-transformed values",,metabolite level,-4.67 ± 0.65 µmol/L
CN(C)C(=O)c1cc2cnc(Nc3ccc(N4CCNCC4)cn3)nc2n1C1CCCC1,"RNA-seq GSEA, item: HALLMARK_COAGULATION",MB002 tumour,"concentration not given, in vivo","baseline: vehicle, direction not given",GSEA enrichment score,-0.234
C[C@H]1O[C@@H](O[C@H]2CC[C@@]3(C)[C@@H](CC[C@]4(C)[C@@H]3C=C[C@]35OC[C@@]6(CCC(C)(C)C[C@H]63)[C@@H](O)C[C@]54C)[C@]2(C)CO)[C@H](O)[C@@H](O[C@@H]2O[C@H](CO)[C@@H](O)[C@H](O)[C@H]2O)[C@H]1O,,"chronic-plus-binge ethanol mice, liver","oral, 5 mg/kg/day for 7 d, 168 h",,triglyceride level,0.116 mmol/g protein and 0.249 mmol/g protein and 0.245 mmol/g protein and 0.141 mmol/g protein and 0.24 mmol/g protein and 0.16 mmol/g protein
N#Cc1ccc2c(-c3ccncc3)c(-c3ccc(F)cc3)nn2c1,"kinase binding, competitor, MIB/MS competition, item: PKH3",Candida albicans cell lysate,10 µM,baseline: DMSO,log2 fold change,-0.168
OC(CCN1CCCCC1)(c1ccccc1)C1CC2C=CC1C2 (stereo not shown),resting-state EEG,healthy elderly humans,"oral, 4 mg, eyes closed, LS mean",baseline: baseline,change in EEG Beta1-power Fz-Cz,-7.9%
CC(C)[C@H](C(=O)Nc1ccc(C(=O)NO)cc1)c1ccccc1,volumetric MRI,"human, right internal auditory canal","dose not given, 358 days",,tumour volume,0.0157 cm³
Cn1cc(Nc2nccc(-c3ccc4c(c3)CN(C3COC3)CC[C@H]4NC(=O)c3cn(C(C)(C)C)nn3)n2)cn1,item: Huntington's Disease Signaling,"splenic B cells, Mus musculus","30 mg/kg, together with: IgD activation","baseline: vehicle, direction not given",pathway activation z-score,2.2
CCCCC1C(=O)N(c2ccccc2)N(c2ccccc2)C1=O,carrageenan paw oedema,albino rat,"oral, 100 mg/kg, 3 h",,inhibition,65.1%
c1ccc(-c2n[nH]cc2-c2ccnc3ccccc23)nc1,"kinase binding, competitor, MIB/MS competition, item: CDC7",Candida albicans cell lysate,1 µM,baseline: DMSO,log2 fold change,1.22
O=C(O)CNC(=O)Cc1ccccc1,,"ventricular cardiomyocytes, C57BL/6 mouse","dose not given, 0.488 s",,sarcomere length,1.65 µm
COc1cc(CCc2cc(OC)c(O)c(OC)c2)ccc1O,Oil Red O,"3T3-L1, mouse","5 µM, day 8",baseline: vehicle,lipid accumulation,87.2 ± 3.11%
CN[C@@H]1COc2c(S(=O)(=O)NC(=O)Nc3c4c(cc5c3CCC5)CCC4)cnn2C1,item: IL-18,"human participants, whole blood ex vivo","450 mg single dose, 8 h, IL-18, circulating, adjusted for, together with: LPS/ATP",baseline: baseline,inhibition,134%
Cc1cc(C)c(CNC(=O)c2cc(Cl)c3c(c2C)O[C@@](C)([C@H]2CC[C@H](N(C)C)CC2)O3)c(=O)[nH]1,IWG criteria,relapsed/refractory AITL patients,dose not given,,best response not assessed,5%
C=CCn1c(=O)c2cnc(Nc3ccc(N4CCN(C)CC4)cc3)nc2n1-c1ccc2c(n1)[C@@](O)(CC)CC2,,"SW-620 xenograft, BALB/c nude mice","oral, 80 mg/kg, day 20, once daily x 21",,tumour volume difference,1030 ± 55.1 mm3
C[C@H](Oc1ccc(Br)cc1-c1ccon1)C(=O)O,muscle velocity recovery cycle,"human, tibialis anterior muscle","600 mg once daily, first response latency at 30 Hz, multiple ascending dose",,difference from placebo,-0.545%
CC(C)[C@H](NC(=O)[C@H](Cc1ccc(O)cc1)NC(=O)[C@H](Cc1ccc(O)cc1)NC(=O)[C@@H]1CCCN1C(=O)[C@H](CCC(=O)O)NC(=O)[C@H](CCC(=O)O)NC(=O)[C@H](Cc1c[nH]c2ccccc12)NC(=O)[C@@H]1CCCN1C(=O)[C@@H](NC(=O)[C@H](CCC(N)=O)NC(=O)c1ccc2c(c1)C(=O)OC21c2ccc(O)cc2Oc2cc(O)ccc21)C(C)C)C(=O)N[C@H](C(=O)N[C@@H](CCCCN)C(=O)N[C@@H](CCCCN)C(=O)N[C@@H](CO)C(=O)N[C@@H](CO)C(=O)NCC(=O)NCC(N)=O)C(C)C,nerve trajectory,"human head and neck surgery, nerves","500 mg, much improved",baseline: white light,share of responses,7.1%
CC(c1cc2ccccc2s1)N(O)C(N)=O (stereo not shown),"item: 5,15-diHETE",human whole blood,"3 µM, together with: Escherichia coli",,amount,20 ± 2 pg/mL blood
COc1cc(Nc2ncc3c(n2)-c2ccc(Cl)cc2C(c2c(F)cccc2OC)=NC3)ccc1C(=O)O,,"mouse, OS-1 osteosarcoma xenograft",2.6 mg/kg,direction not given,median response score,2
CCc1c(C)nc(-c2ccc(Cl)s2)nc1Nc1ccc(CC(=O)O)cc1,,"C57BL/6J mouse, high-fat diet MASH model, white adipose tissue","intraperitoneal, 0.3 mg/kg daily, 60% fat diet for 12 weeks, dosed final four weeks",baseline: untreated,adipocyte diameter,no effect
CC(C)NCC(O)c1ccc(O)c(O)c1 (stereo not shown),,"ventricular cardiomyocytes, C57BL/6 mouse","dose not given, 0.452 s",,sarcomere length,1.69 µm
CC1(C)CCC(c2ccc(Cl)cc2)=C(CN2CCN(c3ccc(C(=O)NS(=O)(=O)c4ccc(N[C@H](CCN5CCOCC5)CSc5ccccc5)c(S(=O)(=O)C(F)(F)F)c4)cc3)CC2)C1,"cell killing, flow cytometry PI exclusion","canine blood CD21+ B cells, dog 39",24 h,,EC50,945 nM
COc1ncnn2ccc(-c3cnc4nc(C)n(Cc5nnc([C@@H](C)F)o5)c4c3)c12,,"relapsed or refractory AML, MDS","dose not given, splicing factor mutation-positive",,best overall response PR,0%
O=C1Nc2cc3[nH]nc(-c4ccncc4)c3cc2CN1Cc1ccccc1,RECIST v1.1,"human, relapsed or refractory advanced solid tumours","intravenous, 0.9 mg/kg, pooled schedules",,"complete response, best response",0%
